# Published values gathered from unrelated publications.
# A part holds a random share of what one study measured. Values joined by “and” are separate records of one study, mostly repeats; a detail may differ.
# Chain of UniProt Q16832 (whole entry, looked up): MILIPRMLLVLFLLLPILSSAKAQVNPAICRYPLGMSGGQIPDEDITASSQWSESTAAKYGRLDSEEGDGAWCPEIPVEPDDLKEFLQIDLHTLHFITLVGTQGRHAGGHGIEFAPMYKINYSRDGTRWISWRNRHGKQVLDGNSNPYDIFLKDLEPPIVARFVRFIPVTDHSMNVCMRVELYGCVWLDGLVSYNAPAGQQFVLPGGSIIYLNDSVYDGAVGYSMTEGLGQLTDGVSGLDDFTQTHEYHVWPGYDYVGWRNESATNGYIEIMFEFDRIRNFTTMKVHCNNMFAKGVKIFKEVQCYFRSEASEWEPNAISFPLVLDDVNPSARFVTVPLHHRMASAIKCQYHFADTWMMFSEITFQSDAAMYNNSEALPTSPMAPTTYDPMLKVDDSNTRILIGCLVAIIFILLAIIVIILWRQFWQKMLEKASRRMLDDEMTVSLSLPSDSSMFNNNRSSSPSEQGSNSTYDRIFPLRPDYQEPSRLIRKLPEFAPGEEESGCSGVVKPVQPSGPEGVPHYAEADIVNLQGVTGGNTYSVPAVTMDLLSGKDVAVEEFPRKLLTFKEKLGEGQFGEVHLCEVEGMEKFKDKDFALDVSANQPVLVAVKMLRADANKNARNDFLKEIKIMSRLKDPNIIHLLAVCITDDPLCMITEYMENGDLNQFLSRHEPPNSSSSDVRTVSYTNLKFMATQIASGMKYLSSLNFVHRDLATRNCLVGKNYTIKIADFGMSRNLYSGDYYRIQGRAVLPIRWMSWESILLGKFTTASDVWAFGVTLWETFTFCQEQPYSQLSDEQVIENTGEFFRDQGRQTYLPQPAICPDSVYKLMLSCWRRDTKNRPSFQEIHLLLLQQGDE
# Chain of UniProt P00519 (whole entry, looked up): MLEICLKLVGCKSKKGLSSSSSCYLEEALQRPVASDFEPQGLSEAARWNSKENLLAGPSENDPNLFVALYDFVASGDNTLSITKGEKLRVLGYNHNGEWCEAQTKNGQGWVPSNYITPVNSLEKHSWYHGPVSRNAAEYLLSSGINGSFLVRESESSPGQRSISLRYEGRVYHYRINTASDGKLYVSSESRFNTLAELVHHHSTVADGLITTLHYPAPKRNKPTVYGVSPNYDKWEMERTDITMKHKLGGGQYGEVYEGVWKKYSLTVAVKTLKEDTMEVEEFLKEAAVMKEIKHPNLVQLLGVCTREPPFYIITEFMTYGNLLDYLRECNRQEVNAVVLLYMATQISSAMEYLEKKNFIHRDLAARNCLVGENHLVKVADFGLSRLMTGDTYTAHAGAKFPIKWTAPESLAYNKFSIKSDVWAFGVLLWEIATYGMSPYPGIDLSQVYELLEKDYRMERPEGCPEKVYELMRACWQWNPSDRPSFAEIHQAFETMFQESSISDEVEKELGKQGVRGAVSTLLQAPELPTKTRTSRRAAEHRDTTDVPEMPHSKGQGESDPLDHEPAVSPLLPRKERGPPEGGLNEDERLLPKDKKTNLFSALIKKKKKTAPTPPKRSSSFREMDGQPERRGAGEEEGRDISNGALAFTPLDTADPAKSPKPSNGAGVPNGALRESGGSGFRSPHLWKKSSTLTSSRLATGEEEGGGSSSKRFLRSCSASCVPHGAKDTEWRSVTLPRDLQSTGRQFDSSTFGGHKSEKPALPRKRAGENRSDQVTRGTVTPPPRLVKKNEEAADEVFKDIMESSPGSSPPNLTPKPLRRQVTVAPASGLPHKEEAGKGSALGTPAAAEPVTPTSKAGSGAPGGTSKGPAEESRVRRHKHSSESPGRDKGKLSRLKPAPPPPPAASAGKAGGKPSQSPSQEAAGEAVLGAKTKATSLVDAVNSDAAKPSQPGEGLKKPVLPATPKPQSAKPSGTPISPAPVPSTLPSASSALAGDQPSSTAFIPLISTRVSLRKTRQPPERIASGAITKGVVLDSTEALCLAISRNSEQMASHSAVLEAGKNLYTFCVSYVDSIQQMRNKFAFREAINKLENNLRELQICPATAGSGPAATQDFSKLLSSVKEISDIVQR
# Chain of UniProt Q8NCB2 (whole entry, looked up): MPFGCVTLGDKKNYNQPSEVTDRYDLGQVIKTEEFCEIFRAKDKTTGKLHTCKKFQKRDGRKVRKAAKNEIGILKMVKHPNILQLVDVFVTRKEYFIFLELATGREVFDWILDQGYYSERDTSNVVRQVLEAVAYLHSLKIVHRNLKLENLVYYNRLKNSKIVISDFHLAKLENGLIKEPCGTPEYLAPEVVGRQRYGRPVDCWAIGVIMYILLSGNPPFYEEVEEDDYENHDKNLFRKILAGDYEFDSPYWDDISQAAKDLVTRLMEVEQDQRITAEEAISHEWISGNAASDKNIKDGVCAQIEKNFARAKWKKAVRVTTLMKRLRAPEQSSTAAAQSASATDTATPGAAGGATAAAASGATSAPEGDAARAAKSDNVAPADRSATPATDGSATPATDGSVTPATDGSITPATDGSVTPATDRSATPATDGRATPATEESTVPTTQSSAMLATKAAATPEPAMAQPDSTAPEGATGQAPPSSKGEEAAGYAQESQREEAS

# Sample 1
# Compound: CC(C)n1cnc(-c2ccc(F)cc2)c1-c1ncc(C(=O)Nc2ccc(N3CCN(C)CC3)cc2)[nH]1
technique,item,host,route,dose,setting,patients with adverse event
Phase 2a trial,hyperuricaemia,"human, idiopathic pulmonary fibrosis",,60 mg once daily,grade 2,0%
Phase 2a trial,hypocalcaemia,"human, idiopathic pulmonary fibrosis",,30 mg once daily,grade 4,0%
Phase 2a trial,hypokalaemia,"human, idiopathic pulmonary fibrosis",,30 mg once daily,grade 3,0%
Phase 2a trial,haemorrhoids,"human, idiopathic pulmonary fibrosis",,30 mg once daily,grade 2,0%
Phase 2a trial,"respiratory, thoracic, mediastinal disorders","human, idiopathic pulmonary fibrosis",,30 mg once daily,grade 3,0%
,"prostatic calcification, maximum grade 4",idiopathic pulmonary fibrosis patients,oral,30 mg once daily,,0%
Phase 2a trial,hepatic steatosis,"human, idiopathic pulmonary fibrosis",,30 mg once daily,grade 5,0%
,"any adverse event, grade 4",idiopathic pulmonary fibrosis patients,,dose not given,all compound arms pooled,0%
Phase 2a trial,hypocalcaemia,"human, idiopathic pulmonary fibrosis",,30 mg once daily,grade 5,0%
Phase 2a trial,blood urea increased,"human, idiopathic pulmonary fibrosis",,all compound arms total,grade 5,0%
Phase 2a trial,blood pressure increased,"human, idiopathic pulmonary fibrosis",,60 mg once daily,grade 4,0%

# Sample 2 — cell line: human cells
# SMILES: O=C1NC(=O)C(c2cn(-c3ccccc3)nc2-c2ccc(F)cc2)N1 (stereo not shown)
target,observed,action,setting,EC50
BCR-ABL,kinase–CDC37 interaction,inhibitor,,386 nM
"DDR2 (Homo sapiens, UniProt Q16832)",kinase–CDC37 interaction,inhibitor,kinome plate 1@E12,> 10000 nM
"Tyrosine-protein kinase ABL1, BCR fusion (ABL1, Homo sapiens, UniProt P00519)",kinase-HSP90-CDC37 interaction,,,386 nM
"CaM kinase-like vesicle-associated protein (CAMKV, Homo sapiens, UniProt Q8NCB2)",kinase–CDC37 interaction,inhibitor,kinome plate 2@E05,> 10000 nM

# Sample 3 — medium: plasma; route: oral
# Compound: COc1ccc(-c2c(Nc3ccccn3)[nH]c3c(C4=CCCCC4)c(-c4ccccc4)nn3c2=O)cc1
technique,host,dose,time,setting,"plasma concentration, median"
,human patients,200 mg once daily,2 h,cycle 1,8630 ng/mL
,human patients,150 mg once daily,8 h,cycle 1,3970 ng/mL
LC-MS/MS,human,50 mg once daily,6 h,cycle 1,1630 ng/mL
LC-MS/MS,human,50 mg once daily,2 h,cycle 1,1160 ng/mL
LC-MS/MS,human,50 mg once daily,0.5 h,cycle 1,1160 ng/mL
,human patients,100 mg once daily,6 h,cycle 1,4960 ng/mL
,human patients,200 mg once daily,0 h,cycle 1,6600 ng/mL
,human patients,200 mg once daily,0.5 h,cycle 1,6600 ng/mL
,human patients,100 mg once daily,0.5 h,cycle 1,4830 ng/mL
LC-MS/MS,human,200 mg twice daily,0.5 h,,10700 ng/mL
LC-MS/MS,human,200 mg twice daily,3 h,,11400 ng/mL
,human patients,400 mg once daily,6 h,cycle 1,2270 ng/mL
,human patients,400 mg once daily,0 h,cycle 1,2090 ng/mL
LC-MS/MS,human,50 mg once daily,8 h,cycle 1,1540 ng/mL

# Sample 4 — observed: enzyme activity; action: inhibitor; concentration: 0.5 µM; baseline: control
# Target: Serine/threonine-protein kinase haspin (HASPIN, Homo sapiens, UniProt Q8TF76)
# Construct (Q8TF76 1-798): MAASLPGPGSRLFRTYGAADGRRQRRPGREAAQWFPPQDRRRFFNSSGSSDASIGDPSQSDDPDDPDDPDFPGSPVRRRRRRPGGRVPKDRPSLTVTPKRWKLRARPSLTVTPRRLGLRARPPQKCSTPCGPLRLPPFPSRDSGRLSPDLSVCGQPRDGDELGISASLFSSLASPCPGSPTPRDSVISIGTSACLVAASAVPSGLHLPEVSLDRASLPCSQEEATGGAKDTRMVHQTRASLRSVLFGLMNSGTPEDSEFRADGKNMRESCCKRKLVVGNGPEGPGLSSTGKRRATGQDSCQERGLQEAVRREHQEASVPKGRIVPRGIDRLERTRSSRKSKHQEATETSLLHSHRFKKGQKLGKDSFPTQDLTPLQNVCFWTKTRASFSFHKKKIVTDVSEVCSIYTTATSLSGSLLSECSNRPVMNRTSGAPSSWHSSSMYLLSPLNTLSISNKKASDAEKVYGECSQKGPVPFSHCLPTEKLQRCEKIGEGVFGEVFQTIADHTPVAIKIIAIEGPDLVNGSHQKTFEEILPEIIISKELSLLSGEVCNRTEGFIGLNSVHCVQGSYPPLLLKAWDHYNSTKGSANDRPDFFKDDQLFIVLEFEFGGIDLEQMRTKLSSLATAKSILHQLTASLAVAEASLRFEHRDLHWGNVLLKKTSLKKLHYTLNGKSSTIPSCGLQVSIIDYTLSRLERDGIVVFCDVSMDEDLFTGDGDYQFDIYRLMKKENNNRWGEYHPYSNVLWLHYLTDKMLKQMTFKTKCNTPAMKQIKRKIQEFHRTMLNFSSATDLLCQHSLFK
SMILES,remaining activity
Oc1ccc(Nc2nc(-c3ccc(Cl)cc3)cs2)cc1,100%
Cc1cc(Nc2nc(-c3ccccc3)nc3ccccc23)n[nH]1,90.5%
Nc1nc(Nc2ccc(S(N)(=O)=O)cc2)nn1C(=O)c1c(F)cccc1F,107%
CSc1nc(-c2ccnc(N[C@@H](C)c3ccccc3)c2)c(-c2ccc(F)cc2)[nH]1 (racemic),96.3%
Nc1ncnc2c1cnn2-c1ccccc1,94.8%
Nc1nccc(-c2c(-c3ccc(F)cc3)ncn2C2CCNCC2)n1,91.4%
N#CC(=C(N)Sc1ccc(N)cc1)c1ccccc1C(F)(F)F,99.9%
CC[n+]1c(/C=C/N(C)c2ccccc2)n(-c2ccccc2)c2ccc(-c3nc4ccccc4s3)cc21,110%
CCCC(=O)Oc1ccc2[nH]c(C(=O)c3cc4ccccc4[nH]3)cc2c1,99.2%
O=C1NC(=O)C(c2c[nH]c3ccccc23)=C1c1c[nH]c2ccccc12,84.7%
CC(=O)c1ccc(N2CCOCC2)cc1O,79.6%
Fc1ccc(-c2nc3n(c2-c2ccncc2)CCS3)cc1,104%
NC(=O)c1ccc(N(C(N)=O)c2c(F)cccc2F)nc1-c1ccc(F)cc1F,81.3%
Cc1cncc2cccc(S(=O)(=O)N3CCCN(C(=O)CN)C[C@@H]3C)c12,99.4%
CC(C)(C)n1nc(Cc2cccc3ccccc23)c2c(N)ncnc21,57.1%
CC#CC(=O)Nc1cc2c(Nc3ccc(F)c(Cl)c3)ncnc2cn1,101%
CCc1[nH]c(-c2ccc(OC)cc2)nc1-c1ccncc1,55.9%
COc1ccc(S(=O)(=O)N(CCO)c2ccccc2CN(C)CC=Cc2ccc(Cl)cc2)cc1,95.3%
O=C1Cc2c([nH]c3ccc([N+](=O)[O-])cc23)-c2ccccc2N1,106%
Cc1ccc(NC2=CC(=O)c3sc(C)nc3C2=O)cc1,86.6%
O=S(=O)(NCCNC/C=C/c1ccc(Br)cc1)c1cccc2cnccc12,55.1%
COc1cc(Nc2c(C#N)cnc3cc(OCCCN4CCN(C)CC4)c(OC)cc23)c(Cl)cc1Cl,65.6%

# Mixed results
SMILES,cell line,technique,concentration,time,quantity,value
Cn1cncc1[C@@](O)(COc1ccc(C#N)cc1-c1ccc(OC(F)(F)F)cc1)c1ccc(C#N)cc1,HEK293T,high-content imaging,10 µM,0 h,total cell count,906 and 758
